# Results collected from several papers.
# Each line is one published result; not all experiments were run side by side.
# MAOA: Amine oxidase [flavin-containing] A (MAOA, Homo sapiens, UniProt P21397)
# Sequence of UniProt P21397 (whole entry, looked up): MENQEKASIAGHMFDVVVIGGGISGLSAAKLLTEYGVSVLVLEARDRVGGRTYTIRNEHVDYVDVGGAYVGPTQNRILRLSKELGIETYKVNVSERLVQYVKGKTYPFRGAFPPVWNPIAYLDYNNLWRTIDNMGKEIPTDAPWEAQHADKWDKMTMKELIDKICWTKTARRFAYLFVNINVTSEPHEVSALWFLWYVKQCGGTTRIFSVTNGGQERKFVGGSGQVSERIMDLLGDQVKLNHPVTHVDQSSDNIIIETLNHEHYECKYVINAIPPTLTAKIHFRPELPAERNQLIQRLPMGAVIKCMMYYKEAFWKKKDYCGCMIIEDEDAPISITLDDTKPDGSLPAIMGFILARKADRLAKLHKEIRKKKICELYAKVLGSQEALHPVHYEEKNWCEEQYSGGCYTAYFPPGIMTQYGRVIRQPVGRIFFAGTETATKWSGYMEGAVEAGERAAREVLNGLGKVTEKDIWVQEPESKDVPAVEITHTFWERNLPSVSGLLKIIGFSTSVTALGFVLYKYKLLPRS
# Sequence of UniProt P07437 (whole entry, looked up): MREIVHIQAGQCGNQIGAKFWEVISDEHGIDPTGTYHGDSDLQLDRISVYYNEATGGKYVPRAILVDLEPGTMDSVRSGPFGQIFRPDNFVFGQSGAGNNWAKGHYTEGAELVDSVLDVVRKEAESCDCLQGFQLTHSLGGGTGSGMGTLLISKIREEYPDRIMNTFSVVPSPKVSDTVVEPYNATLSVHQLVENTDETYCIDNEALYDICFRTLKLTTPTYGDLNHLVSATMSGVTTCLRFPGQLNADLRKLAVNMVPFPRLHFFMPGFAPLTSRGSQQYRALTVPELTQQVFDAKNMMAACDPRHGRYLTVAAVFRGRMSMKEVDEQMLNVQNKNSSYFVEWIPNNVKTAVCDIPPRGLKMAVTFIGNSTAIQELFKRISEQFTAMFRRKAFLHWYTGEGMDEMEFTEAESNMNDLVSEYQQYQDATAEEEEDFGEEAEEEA
# Sequence of UniProt Q9HC35 (whole entry, looked up): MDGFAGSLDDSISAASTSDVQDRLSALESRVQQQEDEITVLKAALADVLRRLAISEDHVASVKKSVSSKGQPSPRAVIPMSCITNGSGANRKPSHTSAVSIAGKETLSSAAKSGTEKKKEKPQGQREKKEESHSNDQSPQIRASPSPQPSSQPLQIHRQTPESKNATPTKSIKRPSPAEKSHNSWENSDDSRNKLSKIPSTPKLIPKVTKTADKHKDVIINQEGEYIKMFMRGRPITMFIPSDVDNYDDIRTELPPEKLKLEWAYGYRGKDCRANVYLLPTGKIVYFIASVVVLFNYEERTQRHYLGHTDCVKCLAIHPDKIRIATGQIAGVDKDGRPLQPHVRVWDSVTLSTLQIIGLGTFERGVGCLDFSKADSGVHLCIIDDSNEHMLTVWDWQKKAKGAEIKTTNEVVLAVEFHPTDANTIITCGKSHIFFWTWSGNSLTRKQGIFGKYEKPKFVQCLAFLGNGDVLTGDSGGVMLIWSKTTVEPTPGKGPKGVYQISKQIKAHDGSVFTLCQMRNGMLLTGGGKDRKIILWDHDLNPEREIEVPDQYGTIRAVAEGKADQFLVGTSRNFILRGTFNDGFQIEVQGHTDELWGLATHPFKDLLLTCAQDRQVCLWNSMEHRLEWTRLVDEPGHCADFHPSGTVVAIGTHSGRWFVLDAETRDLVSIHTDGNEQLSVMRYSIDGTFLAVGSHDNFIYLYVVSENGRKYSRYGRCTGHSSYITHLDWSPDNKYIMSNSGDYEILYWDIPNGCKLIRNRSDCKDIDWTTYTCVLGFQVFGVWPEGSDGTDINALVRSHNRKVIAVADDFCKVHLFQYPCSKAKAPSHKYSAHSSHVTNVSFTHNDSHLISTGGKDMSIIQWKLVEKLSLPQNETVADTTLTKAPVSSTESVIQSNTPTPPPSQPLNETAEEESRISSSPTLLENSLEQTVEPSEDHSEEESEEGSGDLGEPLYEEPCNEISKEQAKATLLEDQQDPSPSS
# Sequence of UniProt P54753 (whole entry, looked up): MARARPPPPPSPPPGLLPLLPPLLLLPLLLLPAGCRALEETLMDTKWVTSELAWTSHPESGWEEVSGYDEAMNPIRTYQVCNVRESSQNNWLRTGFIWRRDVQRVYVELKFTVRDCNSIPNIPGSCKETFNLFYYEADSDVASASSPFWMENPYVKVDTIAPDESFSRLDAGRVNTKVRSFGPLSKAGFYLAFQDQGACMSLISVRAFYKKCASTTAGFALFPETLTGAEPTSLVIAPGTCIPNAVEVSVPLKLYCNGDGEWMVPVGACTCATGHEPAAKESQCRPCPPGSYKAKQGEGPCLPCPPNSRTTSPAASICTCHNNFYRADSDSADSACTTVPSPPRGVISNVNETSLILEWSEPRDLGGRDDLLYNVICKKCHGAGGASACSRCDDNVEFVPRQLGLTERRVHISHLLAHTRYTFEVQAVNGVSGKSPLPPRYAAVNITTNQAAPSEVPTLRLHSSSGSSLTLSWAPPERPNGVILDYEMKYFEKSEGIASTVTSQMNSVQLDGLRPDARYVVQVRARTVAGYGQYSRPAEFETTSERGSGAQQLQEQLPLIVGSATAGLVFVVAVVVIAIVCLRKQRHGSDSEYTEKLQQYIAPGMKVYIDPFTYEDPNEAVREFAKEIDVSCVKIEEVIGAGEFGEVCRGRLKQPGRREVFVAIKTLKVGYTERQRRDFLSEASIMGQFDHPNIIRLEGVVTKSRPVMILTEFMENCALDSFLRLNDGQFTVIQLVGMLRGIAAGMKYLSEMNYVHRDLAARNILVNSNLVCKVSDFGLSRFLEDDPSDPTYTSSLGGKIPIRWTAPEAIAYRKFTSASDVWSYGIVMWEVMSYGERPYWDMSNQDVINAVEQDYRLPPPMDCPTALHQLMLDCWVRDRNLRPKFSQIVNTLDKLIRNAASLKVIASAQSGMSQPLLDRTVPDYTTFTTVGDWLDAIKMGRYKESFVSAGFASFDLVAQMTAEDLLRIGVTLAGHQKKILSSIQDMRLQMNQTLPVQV
# Sequence of UniProt P41738 (whole entry, looked up): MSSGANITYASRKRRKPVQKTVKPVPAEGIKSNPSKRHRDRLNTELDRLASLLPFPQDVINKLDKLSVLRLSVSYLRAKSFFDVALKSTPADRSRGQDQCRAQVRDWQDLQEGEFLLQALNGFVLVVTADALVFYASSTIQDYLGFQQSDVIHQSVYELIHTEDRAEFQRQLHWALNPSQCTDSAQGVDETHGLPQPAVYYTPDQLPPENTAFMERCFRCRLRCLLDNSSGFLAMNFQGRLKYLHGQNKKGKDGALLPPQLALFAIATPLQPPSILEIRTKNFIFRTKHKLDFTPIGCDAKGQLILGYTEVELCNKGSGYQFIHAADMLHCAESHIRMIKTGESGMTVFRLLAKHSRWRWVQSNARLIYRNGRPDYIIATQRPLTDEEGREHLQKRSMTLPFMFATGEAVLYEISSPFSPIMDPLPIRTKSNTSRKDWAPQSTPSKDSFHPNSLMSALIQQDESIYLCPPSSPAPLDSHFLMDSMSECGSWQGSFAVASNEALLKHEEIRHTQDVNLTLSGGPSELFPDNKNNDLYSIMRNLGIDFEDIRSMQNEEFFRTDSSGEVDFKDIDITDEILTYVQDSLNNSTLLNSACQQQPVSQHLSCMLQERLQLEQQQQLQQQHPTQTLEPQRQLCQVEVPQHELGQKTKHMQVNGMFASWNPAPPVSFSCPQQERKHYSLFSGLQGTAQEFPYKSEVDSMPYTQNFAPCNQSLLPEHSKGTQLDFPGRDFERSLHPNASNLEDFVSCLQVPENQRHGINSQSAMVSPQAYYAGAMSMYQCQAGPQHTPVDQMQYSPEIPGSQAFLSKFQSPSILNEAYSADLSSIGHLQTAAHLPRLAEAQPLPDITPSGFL
# Sequence of UniProt P51956 (whole entry, looked up): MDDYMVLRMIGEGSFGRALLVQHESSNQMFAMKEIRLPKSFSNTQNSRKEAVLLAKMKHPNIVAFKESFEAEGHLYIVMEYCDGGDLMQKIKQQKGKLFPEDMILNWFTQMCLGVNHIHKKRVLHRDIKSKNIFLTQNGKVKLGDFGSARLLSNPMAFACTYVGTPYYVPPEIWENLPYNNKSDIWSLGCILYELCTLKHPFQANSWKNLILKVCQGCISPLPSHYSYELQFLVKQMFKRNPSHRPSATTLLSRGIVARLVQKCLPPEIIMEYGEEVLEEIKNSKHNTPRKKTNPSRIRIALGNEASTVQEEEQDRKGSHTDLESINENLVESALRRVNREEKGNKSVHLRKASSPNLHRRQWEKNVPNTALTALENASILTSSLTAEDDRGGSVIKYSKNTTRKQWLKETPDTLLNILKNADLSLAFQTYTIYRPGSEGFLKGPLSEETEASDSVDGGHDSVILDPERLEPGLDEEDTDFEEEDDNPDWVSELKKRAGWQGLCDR
# Sequence of UniProt P13945 (whole entry, looked up): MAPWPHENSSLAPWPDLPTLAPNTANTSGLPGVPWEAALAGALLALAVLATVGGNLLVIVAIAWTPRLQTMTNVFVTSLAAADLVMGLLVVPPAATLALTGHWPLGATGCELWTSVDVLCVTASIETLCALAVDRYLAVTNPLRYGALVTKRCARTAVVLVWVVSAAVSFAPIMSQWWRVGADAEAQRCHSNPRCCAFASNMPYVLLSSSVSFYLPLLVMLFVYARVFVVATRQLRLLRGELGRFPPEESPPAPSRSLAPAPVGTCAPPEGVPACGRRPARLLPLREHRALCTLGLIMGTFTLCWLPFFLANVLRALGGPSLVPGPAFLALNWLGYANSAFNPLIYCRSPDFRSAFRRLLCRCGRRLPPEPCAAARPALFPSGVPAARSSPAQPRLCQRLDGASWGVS
Structure (SMILES),target,assay,system,conditions,scale,measurement,value
[2H]c1c([2H])c([C@]2([2H])CCCN2C(=O)C(C)(C)Oc2ccc3cn[nH]c3c2)c([2H])c([2H])c1C([2H])([2H])[2H],"Serine/threonine-protein kinase Nek3 (NEK3, Homo sapiens, UniProt P51956)",KINOMEscan,,1 µM,baseline: DMSO control,remaining binding,70%
COc1ccc(N2C(=O)N(c3c(C)cccc3Cl)Cc3cnc(Nc4ccc(C5CCN(C)CC5)cc4OC)nc32)nc1,"Ephrin type-B receptor 3 (EPHB3, Homo sapiens, UniProt P54753)",kinase activity,,0.5 µM,,inhibition,68%
O=C(c1ccc(Cl)cc1)N1CCN2C(=O)N(OC(=O)N3CCOc4ccccc43)C(=O)C2C1 (stereo not shown),"Tubulin beta-5 chain (TUBB, Homo sapiens, UniProt P07437)",MS-based ABPP,SW-620 conditioned medium,10 µM,"baseline: compound over DMSO, lower = more inhibition",median protein ratio,1.07
CN1CCN(c2cc(-c3ccncc3)c(-c3ccc4ccccc4c3)nn2)CC1,"Beta-3 adrenergic receptor (ADRB3, Homo sapiens, UniProt P13945)","antagonist, FLIPR",,10 µM,,inhibition,21.9%
O=C(Nc1cccnn1)N1CCC(=Cc2cccc(Oc3ccc(C(F)(F)F)cn3)c2)CC1,MAOA,"enzyme activity, inhibitor",,"10 µM, human, added: kynuramine substrate",,inhibition,17%
CC[C@H](C)[C@H](N)C(=O)N1CCC[C@H]1C(=O)N1CCC[C@H]1C(=O)NCC(=O)N[C@H](C(=O)N1CCC[C@H]1C(=O)N[C@@H](Cc1ccc(O)cc1)C(=O)O)C(C)C,MAOA,"inhibitor, fluorometric",,,baseline: IC50 MAO-B over IC50 MAOA,selectivity ratio,11
CN(C(=O)n1cnc(-c2ccc[n+]([O-])c2)c1)C1CCCCC1,"Cholecystokinin receptor type A (CCKAR, Homo sapiens, UniProt P32238)",radioligand binding,,"50 µM, added: [3H]L-364,718",,inhibition,4%
c1ccc2c(c1)cc1ccc3cccc4ccc2c1c34,"Aryl hydrocarbon receptor (Ahr, Rattus norvegicus, UniProt P41738)","agonist, CALUX reporter",H4IIE,0.00126 µg/mL,,agonist response,48.4%
C[C@H]1CN(c2n[nH]c3nc(N[C@H]4CC[C@H](NS(=O)(=O)CCC(F)(F)F)CC4)ncc23)CCO1,"Echinoderm microtubule-associated protein-like 4 (Homo sapiens, UniProt Q9HC35)","Kinobeads competition, item: EML4",,"0.032 µM, unit not given",baseline: vehicle,remaining binding,1.09
O=C(Nc1cnccc1Cl)N1CCN(Cc2ccc3c(c2)OC(F)(F)O3)CC1,"ryanodine receptor RyR3, rat",binding,,"50 µM, added: [3H]ryanodine",,inhibition,2%

# Some of these lines once more:
Structure (SMILES),target,assay,system,conditions,scale,measurement,value
CN(C(=O)n1cnc(-c2ccc[n+]([O-])c2)c1)C1CCCCC1,"Cholecystokinin receptor type A (CCKAR, Homo sapiens, UniProt P32238)",radioligand binding,,"50 µM, added: [3H]L-364,718",,inhibition,4%
c1ccc2c(c1)cc1ccc3cccc4ccc2c1c34,"Aryl hydrocarbon receptor (Ahr, Rattus norvegicus, UniProt P41738)","agonist, CALUX reporter",H4IIE,0.00126 µg/mL,,agonist response,48.4%
